Results from different studies.
Lines come from different studies, so protocols differ. ± marks the error that the study gave.
ERBB2: Receptor tyrosine-protein kinase erbB-2 (ERBB2, Homo sapiens, UniProt P04626)
Sequence of UniProt Q08460 (whole entry, looked up): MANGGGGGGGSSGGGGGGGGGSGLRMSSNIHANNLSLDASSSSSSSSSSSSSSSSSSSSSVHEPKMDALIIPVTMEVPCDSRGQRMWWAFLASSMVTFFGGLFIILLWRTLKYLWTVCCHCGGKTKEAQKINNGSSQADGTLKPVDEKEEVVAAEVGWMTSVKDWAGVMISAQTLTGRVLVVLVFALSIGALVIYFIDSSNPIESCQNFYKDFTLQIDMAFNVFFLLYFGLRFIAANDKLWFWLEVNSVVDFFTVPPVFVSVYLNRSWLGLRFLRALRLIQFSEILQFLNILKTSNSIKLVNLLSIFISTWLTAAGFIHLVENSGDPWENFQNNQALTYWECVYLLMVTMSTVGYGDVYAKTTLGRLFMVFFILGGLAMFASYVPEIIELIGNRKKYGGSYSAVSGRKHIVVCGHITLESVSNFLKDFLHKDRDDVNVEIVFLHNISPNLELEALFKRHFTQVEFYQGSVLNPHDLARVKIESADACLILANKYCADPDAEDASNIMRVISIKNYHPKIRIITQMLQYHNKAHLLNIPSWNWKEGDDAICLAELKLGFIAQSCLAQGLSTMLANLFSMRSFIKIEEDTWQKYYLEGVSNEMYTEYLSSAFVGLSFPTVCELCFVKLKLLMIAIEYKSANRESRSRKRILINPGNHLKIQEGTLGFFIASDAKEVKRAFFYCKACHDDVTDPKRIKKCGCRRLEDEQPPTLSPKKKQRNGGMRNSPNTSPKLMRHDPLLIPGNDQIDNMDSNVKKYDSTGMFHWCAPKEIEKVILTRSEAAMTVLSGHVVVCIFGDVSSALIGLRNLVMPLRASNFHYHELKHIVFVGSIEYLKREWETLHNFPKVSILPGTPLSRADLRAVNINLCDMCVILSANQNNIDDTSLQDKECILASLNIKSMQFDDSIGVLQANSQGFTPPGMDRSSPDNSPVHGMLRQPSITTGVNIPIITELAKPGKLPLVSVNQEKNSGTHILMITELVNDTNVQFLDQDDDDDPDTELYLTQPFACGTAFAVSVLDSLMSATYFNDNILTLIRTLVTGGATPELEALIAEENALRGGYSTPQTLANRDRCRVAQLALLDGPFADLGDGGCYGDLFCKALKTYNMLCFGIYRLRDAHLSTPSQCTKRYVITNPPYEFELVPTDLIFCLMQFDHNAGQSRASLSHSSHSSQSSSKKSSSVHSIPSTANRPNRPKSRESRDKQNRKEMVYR
Sequence of UniProt Q8N8S7 (whole entry, looked up): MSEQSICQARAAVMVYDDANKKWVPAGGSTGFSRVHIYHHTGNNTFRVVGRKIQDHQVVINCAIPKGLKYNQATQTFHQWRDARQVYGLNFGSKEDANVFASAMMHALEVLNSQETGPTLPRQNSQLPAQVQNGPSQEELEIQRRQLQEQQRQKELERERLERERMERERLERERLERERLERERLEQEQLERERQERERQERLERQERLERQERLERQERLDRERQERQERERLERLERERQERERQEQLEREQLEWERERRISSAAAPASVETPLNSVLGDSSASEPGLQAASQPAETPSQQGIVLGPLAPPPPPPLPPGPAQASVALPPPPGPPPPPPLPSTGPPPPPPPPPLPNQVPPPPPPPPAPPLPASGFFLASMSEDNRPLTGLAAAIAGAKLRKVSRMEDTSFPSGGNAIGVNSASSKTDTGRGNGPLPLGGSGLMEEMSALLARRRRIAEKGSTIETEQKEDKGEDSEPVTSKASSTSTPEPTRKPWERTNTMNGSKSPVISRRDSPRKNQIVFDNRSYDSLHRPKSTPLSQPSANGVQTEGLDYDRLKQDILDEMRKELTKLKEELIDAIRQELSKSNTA
Sequence of UniProt P33913 (whole entry, unmodified, looked up): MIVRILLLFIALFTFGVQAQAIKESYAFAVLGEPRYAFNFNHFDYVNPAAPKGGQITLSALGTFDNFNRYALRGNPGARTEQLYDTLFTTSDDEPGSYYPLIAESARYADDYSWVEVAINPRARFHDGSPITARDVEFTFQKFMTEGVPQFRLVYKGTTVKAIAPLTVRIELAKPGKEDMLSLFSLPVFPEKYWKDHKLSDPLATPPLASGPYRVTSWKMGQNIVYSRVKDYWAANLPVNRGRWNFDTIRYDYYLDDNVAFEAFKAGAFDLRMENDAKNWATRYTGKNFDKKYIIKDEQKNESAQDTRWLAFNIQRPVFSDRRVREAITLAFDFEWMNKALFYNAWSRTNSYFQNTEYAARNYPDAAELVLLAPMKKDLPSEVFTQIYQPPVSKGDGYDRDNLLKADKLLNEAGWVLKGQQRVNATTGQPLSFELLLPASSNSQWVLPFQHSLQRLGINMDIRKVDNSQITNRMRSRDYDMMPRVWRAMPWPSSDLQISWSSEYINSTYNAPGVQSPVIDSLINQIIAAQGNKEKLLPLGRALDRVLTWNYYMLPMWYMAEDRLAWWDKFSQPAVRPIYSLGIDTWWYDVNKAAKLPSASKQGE
Sequence of UniProt P00811 (whole entry, looked up): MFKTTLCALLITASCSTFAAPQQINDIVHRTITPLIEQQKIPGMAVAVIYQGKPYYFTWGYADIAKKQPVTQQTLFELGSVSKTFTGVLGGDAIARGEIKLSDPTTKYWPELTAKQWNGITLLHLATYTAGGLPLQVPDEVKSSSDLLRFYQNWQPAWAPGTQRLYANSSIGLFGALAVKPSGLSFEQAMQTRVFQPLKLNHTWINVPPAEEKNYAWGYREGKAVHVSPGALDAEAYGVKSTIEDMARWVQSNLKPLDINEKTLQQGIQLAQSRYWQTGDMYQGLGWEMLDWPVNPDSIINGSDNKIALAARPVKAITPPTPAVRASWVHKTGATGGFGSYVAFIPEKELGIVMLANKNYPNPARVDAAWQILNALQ
Sequence of UniProt P34972 (whole entry, looked up): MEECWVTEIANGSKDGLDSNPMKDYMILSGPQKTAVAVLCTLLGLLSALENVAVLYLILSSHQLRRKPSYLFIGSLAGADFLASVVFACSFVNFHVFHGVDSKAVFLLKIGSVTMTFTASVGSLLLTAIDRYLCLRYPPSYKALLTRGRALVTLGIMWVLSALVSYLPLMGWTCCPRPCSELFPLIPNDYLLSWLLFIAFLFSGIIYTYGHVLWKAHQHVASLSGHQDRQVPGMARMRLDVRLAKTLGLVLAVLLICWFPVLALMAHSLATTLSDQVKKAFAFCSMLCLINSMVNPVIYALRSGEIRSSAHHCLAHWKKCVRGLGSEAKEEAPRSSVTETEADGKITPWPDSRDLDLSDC

Structure (SMILES)	target	test	system	setting	Kd [µM]
CC(C)[C@H](NC(=O)[C@H](CCCNC(=N)N)NC(=O)[C@H](Cc1c[nH]c2ccccc12)NC(=O)CN)C(=O)N[C@@H](CO)C(=O)N[C@@H](CCC(=O)O)C(=O)N[C@@H](Cc1ccccc1)C(=O)NCC(=O)NCC(=O)NCC(=O)N[C@@H](CO)C(=O)N[C@@H](CCCCNC(=O)CCCC[C@@H]1SC[C@@H]2NC(=O)N[C@@H]21)C(=O)O	cowpea mosaic virus	competitive phage ELISA	–	–	~0.007
CC[C@H](C)[C@H](NC(=O)[C@H](CCCCN)NC(=O)[C@H](C)NC(=O)[C@H](CCCNC(=N)N)NC(=O)[C@H](CCCCN)NC(=O)[C@H](CCC(N)=O)NC(=O)[C@H](CCC(N)=O)NC(=O)[C@H](CC(N)=O)NC(=O)[C@@H](NC(=O)[C@H](CC(C)C)NC(=O)[C@H](CC(N)=O)NC(=O)[C@@H]1CCCN1C(=O)[C@H](CC(=O)O)NC(=O)[C@H](CC(C)C)NC(=O)[C@H](CS)NC(=O)[C@H](C)NC(=O)[C@H](CCC(=O)O)NC(=O)[C@H](Cc1c[nH]c2ccccc12)NC(=O)[C@H](Cc1ccc(O)cc1)NC(=O)[C@H](CCCNC(=N)N)NC(=O)[C@H](CC(N)=O)NC(=O)[C@H](CCCNC(=N)N)NC(=O)[C@H](CCSC)NC(=O)[C@H](CCC(=O)O)NC(=O)[C@H](CCCCN)NC(=O)[C@H](CO)NC(=O)[C@H](Cc1ccccc1)NC(C)=O)[C@@H](C)O)C(=O)N[C@@H](CCCNC(=N)N)C(=O)N[C@@H](CO)C(=O)N[C@H](C(=O)N[C@@H](Cc1ccc(O)cc1)C(=O)N[C@@H](CCC(=O)O)C(=O)N[C@@H](CCC(=O)O)C(=O)NCC(=O)N[C@@H](CCC(=O)O)C(N)=O)[C@@H](C)CC	ERBB2	binding, SPR	–	–	0.096
Cn1c(C(C)(C)C)c/c(=N\C(=O)c2cc(C(F)(F)F)ccc2OCC(C)(C)O)n1CC1CCC1	Cannabinoid receptor 2 (CNR2, Homo sapiens, UniProt P34972)	binding, radioligand	–	cell membranes	0.00308
CSCC[C@H](NC=O)C(=O)N[C@@H](CCCNC(=N)N)C(=O)N[C@H](C(=O)NCC(=O)N[C@@H](CC(N)=O)C(=O)N[C@@H](C)C(=O)N[C@@H](CC(N)=O)C(=O)NCC(=O)NCC(=O)N[C@@H](CCCCNC(=S)Nc1ccc2c(c1)C(=O)OC21c2ccc(O)cc2Oc2cc(O)ccc21)C(=O)O)[C@@H](C)O	Uncharacterized protein YejA (yejA, Escherichia coli, UniProt P33913, Q150A)	binding, fluorescence polarisation	–	YejA variant Q132A	30.3 ± 2.14
CCOC(=O)C(C)(COP(=O)(OC)OCCCCCCNC(=O)c1cc2ccccc2oc1=O)C(=O)CSC(C)=O (stereo not drawn)	Retinal rod rhodopsin-sensitive cGMP 3',5'-cyclic phosphodiesterase subunit delta (PDE6D, Homo sapiens, UniProt O43924)	ligand displacement, FP	–	–	7.27
CC(=O)N[C@@H](CO)C(=O)N[C@@H](Cc1ccccc1)C(=O)N[C@@H](CCC(=O)O)C(=O)N[C@@H](Cc1ccccc1Cl)C(=O)N1CCC[C@]12C=C[C@@H]1CC[C@@H](C(=O)N3CC[C@@H]4C=C[C@H]5CC[C@@H](C(=O)N[C@H](C(=O)N[C@@H](CCC(=O)O)C(=O)N[C@@H](CC(=O)O)C(=O)N[C@@H](CCC(=O)O)C(=O)N[C@@H](CC(C)C)C(N)=O)[C@@H](C)O)N5C(=O)[C@H]43)N1C2=O	Protein enabled homolog (ENAH, UniProt Q8N8S7)	binding, ITC	–	–	0.34
CC[C@H](C)[C@H](NC(=O)[C@@H](NC(=O)CC(NC(=O)[C@H](Cc1ccccc1)NC(=O)[C@H](C)NC(=O)[C@H](CCCNC(=N)N)NC(=O)CNC(=O)[C@@H]1CCCN1C(=O)CNC(=O)[C@@H](N)CCCNC(=N)N)c1ccccc1[N+](=O)[O-])[C@@H](C)O)C(=O)O (stereo partly drawn)	H-2 class I histocompatibility antigen, D-D alpha chain, 18 (H2-D1, Mus musculus, UniProt P01900)	thermodynamic cycle calculation	–	–	0.38
CC[C@H](C)[C@H](NC(=O)[C@H](CCC(=O)O)NC(=O)[C@H](CCC(=O)O)NC(=O)[C@H](Cc1ccccc1)NC(=O)[C@H](CCCCN)NC(=O)[C@@H]1CCCN1C(=O)[C@H](Cc1c[nH]cn1)NC(=O)[C@H](CCCCN)NC(=O)[C@H](CO)NC(=O)[C@H](CC(C)C)NC(=O)[C@H](Cc1c[nH]cn1)NC(C)=O)C(=O)N[C@@H](CC(C)C)C(=O)N[C@H](C(=O)N[C@@H](CCCNC(=N)N)C(=O)N[C@@H](CC(C)C)C(=O)N[C@@H](CCCNC(=N)N)C(=O)N[C@@H](CC(C)C)C(=O)N[C@@H](CCC(N)=O)C(N)=O)[C@@H](C)O	Calmodulin-1, N-lobe fragment (CALM1, Homo sapiens, UniProt P0DP23)	ITC	–	N-lobe, together with: 1 mM CaCl2	1.31
CC[C@@H](C)[C@@H](NC(=O)[C@@H](CCC(N)=O)NC(=O)[C@H](NC(=O)[C@H]1CCCN1C(=O)[C@H](NC(=O)[C@@H](CO)NC(=O)[C@@H](Cc1ccccc1)NC(=O)[C@H]1CCCN1C(=O)[C@@H](CCC(N)=O)NC(=O)[C@H](N)CCSC)[C@H](C)CC)C(C)C)C(=O)N[C@@H](C(=O)N[C@H](CC(C)C)C(=O)N[C@H](CCC(N)=O)C(=O)NCC(=O)N[C@H](CO)C(=O)N[C@H](CCCNC(=N)N)C(=O)N[C@H](CCCNC(=N)N)C(=O)N[C@H](CCCNC(=N)N)C(=O)N[C@H](CCC(N)=O)C(=O)NCC(=O)N[C@H](CCCNC(=N)N)C(N)=O)[C@H](C)O	Kcnma1 (Mus musculus, UniProt Q08460)	BK current, blocker, inside-out patch	Xenopus oocytes	pH 7.0, 22 °C, 0 mV, together with: 4 µM peptide	10.7
C=C[C@H]1CN(Cc2ccccn2)C(=O)[C@@H]2CCC[C@H]1N2Sc1cc(Cl)cc(Cl)c1	uncharacterized protein, residues 23-253 (Pseudomonas aeruginosa, UniProt Q9HYX8)	binding, competitive fluorescence polarization	–	30 min, protein 40 nM, together with: fluorescent tracer 1 nM	7.37 ± 0.89
CC[C@H](C)[C@H](NC(=O)[C@H](CCCCN)NC(=O)[C@H](C)NC(=O)[C@H](CCCNC(=N)N)NC(=O)[C@H](CCCCN)NC(=O)[C@H](CCC(N)=O)NC(=O)[C@H](CCC(N)=O)NC(=O)[C@H](CC(N)=O)NC(=O)[C@H](CS)NC(=O)[C@H](CC(C)C)NC(=O)[C@H](CC(N)=O)NC(=O)[C@@H]1CCCN1C(=O)[C@H](CC(=O)O)NC(=O)[C@H](CC(C)C)NC(=O)[C@H](C)NC(=O)[C@H](C)NC(=O)[C@H](CCC(=O)O)NC(=O)[C@H](Cc1c[nH]c2ccccc12)NC(=O)[C@H](Cc1ccc(O)cc1)NC(=O)[C@H](CCCNC(=N)N)NC(=O)[C@H](CC(N)=O)NC(=O)[C@H](CCCNC(=N)N)NC(=O)[C@H](CCSC)NC(=O)[C@H](CCC(=O)O)NC(=O)[C@H](CCCCN)NC(=O)[C@H](CO)NC(=O)[C@H](Cc1ccccc1)NC(C)=O)C(=O)N[C@@H](CCCNC(=N)N)C(=O)N[C@@H](CO)C(=O)N[C@H](C(=O)N[C@@H](Cc1ccc(O)cc1)C(=O)N[C@@H](CCC(=O)O)C(=O)N[C@@H](CCC(=O)O)C(=O)NCC(=O)N[C@@H](CCC(=O)O)C(N)=O)[C@@H](C)CC	ERBB2	binding, SPR	–	–	0.044
C=CCN=CC1C(=O)CC(C)(C)CC1=O	Beta-lactamase (ampC, Escherichia coli K-12, UniProt P00811)	–	–	–	1400

A few entries again:
Structure (SMILES)	target	test	system	setting	Kd [µM]
Cn1c(C(C)(C)C)c/c(=N\C(=O)c2cc(C(F)(F)F)ccc2OCC(C)(C)O)n1CC1CCC1	Cannabinoid receptor 2 (CNR2, Homo sapiens, UniProt P34972)	binding, radioligand	–	cell membranes	0.00308
